{"data": "Results from different studies", "note": "Numbered parts are unrelated; each lists some results of a single study."}
{"data": "Set 1", "target": "Histone acetyltransferase KAT6A, both winged helices, GST fusion (KAT6A, Homo sapiens, UniProt Q92794, residues 1-181)", "technique": "protein binding microarray", "form": "double-stranded DNA, one strand shown", "medium": "in vitro", "concentration": "not given", "setting": "8-mer, flanks averaged, mean of 2 arrays, mostly near background", "relative to": "not given", "direction": "higher = stronger binding", "Target sequence (chain)": "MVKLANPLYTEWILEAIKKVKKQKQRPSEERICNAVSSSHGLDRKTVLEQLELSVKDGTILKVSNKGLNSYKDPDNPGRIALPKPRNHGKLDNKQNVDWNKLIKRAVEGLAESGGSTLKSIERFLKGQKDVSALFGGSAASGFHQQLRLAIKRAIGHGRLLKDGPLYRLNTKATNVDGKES"}
{"Strand": "GGGGCGTA", "E-score": -0.00238}
{"Strand": "CCGTCGTC", "E-score": 0.154}
{"Strand": "TATTCTAA", "E-score": -0.083}
{"Strand": "AGATAAGC", "E-score": -0.0315}
{"Strand": "CCCCCACC", "E-score": -0.189}
{"Strand": "CCGAGATA", "E-score": -0.0133}
{"Strand": "CCAACCTA", "E-score": -0.155}
{"Strand": "ACGTCAGC", "E-score": 0.073}
{"Strand": "CAGACGGA", "E-score": 0.102}
{"Strand": "GGTTCGGA", "E-score": 0.0712}
{"Strand": "GAAGCTAA", "E-score": 0.0316}
{"Strand": "AGAATCGC", "E-score": 0.169}
{"data": "Set 2", "target": "PABPC1L2, full length, GST fusion (mouse, UniProt A0ABA7IW68)", "technique": "RNAcompete", "form": "RNA", "medium": "in vitro", "concentration": "20 nM", "setting": "7-mer, probes averaged, single round", "relative to": "mean of 7-mers", "direction": "higher = stronger binding", "Residues (chain)": "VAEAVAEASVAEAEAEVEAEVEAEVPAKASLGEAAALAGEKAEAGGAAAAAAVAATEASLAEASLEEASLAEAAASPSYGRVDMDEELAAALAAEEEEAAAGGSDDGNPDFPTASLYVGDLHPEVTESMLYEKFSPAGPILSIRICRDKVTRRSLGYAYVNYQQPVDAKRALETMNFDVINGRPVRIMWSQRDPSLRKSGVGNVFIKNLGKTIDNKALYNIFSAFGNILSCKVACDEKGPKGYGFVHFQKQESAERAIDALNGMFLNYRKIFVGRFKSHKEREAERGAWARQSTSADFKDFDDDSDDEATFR"}
{"Strand": "CUCUGAA", "7-mer Z-score": -0.0301}
{"Strand": "GGGGGAA", "7-mer Z-score": 0.347}
{"Strand": "AUGAUUC", "7-mer Z-score": -0.0627}
{"Strand": "UGUCCGA", "7-mer Z-score": -0.248}
{"Strand": "UUAAGCA", "7-mer Z-score": -0.0627}
{"Strand": "UCUUAAA", "7-mer Z-score": 0.599}
{"Strand": "CUCAAGA", "7-mer Z-score": -0.0699}
{"data": "Set 3", "target": "Sal-like protein 4, full length isoform B (SALL4, Homo sapiens, UniProt Q9UJQ4-2, residues 1-616)", "technique": "universal PBM", "form": "double-stranded DNA, one strand shown", "medium": "in vitro", "concentration": "not given", "setting": "8-mer, flanks averaged, mean of replicates", "direction": "higher = stronger binding", "Target sequence (chain)": "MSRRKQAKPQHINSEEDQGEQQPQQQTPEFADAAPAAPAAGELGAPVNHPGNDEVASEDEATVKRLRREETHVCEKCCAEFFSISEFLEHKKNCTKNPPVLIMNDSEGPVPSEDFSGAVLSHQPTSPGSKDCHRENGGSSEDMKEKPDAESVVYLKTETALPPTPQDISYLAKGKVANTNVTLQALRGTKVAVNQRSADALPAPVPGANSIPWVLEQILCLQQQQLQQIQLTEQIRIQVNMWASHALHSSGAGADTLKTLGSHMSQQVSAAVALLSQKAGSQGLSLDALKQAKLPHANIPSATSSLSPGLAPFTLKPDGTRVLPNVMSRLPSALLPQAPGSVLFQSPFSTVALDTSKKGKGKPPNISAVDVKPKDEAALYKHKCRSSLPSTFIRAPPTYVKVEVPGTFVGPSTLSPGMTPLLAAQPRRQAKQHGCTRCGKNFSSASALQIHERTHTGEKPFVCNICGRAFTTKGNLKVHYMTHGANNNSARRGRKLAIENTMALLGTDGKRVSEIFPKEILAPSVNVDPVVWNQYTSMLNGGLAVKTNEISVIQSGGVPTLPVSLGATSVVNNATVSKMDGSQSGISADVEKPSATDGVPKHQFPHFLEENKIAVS"}
{"Strand": "ACTATTCC", "E-score": 0.0817}
{"Strand": "ATTCAAGG", "E-score": 0.0618}
{"Strand": "GCAACGGC", "E-score": -0.126}
{"Strand": "GCGTTATA", "E-score": 0.174}
{"Strand": "GCCCTACC", "E-score": -0.13}
{"Strand": "CTAGCGTC", "E-score": -0.104}
{"Strand": "GCAAACTA", "E-score": -0.00046}
{"Strand": "AGCCGGCC", "E-score": -0.301}
{"Strand": "CAACAGTA", "E-score": -0.0371}
{"Strand": "AAGCCTTG", "E-score": -0.0873}
{"Strand": "ACGCAATC", "E-score": -0.0221}
{"Strand": "CATACGCG", "E-score": 0.0549}
{"data": "Mixed results"}
{"Molecule": "PhoQ, residues 284 288 289 292 302 303 SSTLSG", "target": "PhoP, residues 12 14 15 18 19 NQAHL (Escherichia coli, UniProt P23836)", "test": "Sort-seq, item: YFP reporter", "system": "E. coli", "conditions": "PhoQ-PhoP variant library, with: 10 µM Mg2+", "scale": "relative to: high Mg2+ state, higher = stronger signaling", "measurement": "fold induction", "value": 6.69}
{"note": "Excerpt of the above (set 1):"}
{"Strand": "TATTCTAA", "E-score": -0.083}
{"Strand": "AGATAAGC", "E-score": -0.0315}
{"Strand": "CCCCCACC", "E-score": -0.189}
